Published values pooled from the literature.
Lines come from different studies, so protocols differ.
Organism: Escherichia coli

With `CC[C@H](C)[C@H](NC(=O)[C@@H](NC(=O)[C@H](CCCCN)NC(=O)[C@H](CCCCN)NC(=O)[C@@H](NC(=O)[C@H](Cc1c[nH]c2ccccc12)NC(=O)[C@H](CCCCN)NC(=O)[C@H](Cc1c[nH]c2ccccc12)NC(=O)[C@H](CC(C)C)NC(=O)[C@H](CCCCN)NC(=O)[C@H](CCCCN)NC(=O)[C@@H](N)C(C)C)[C@@H](C)CC)C(C)C)C(N)=O` the MIC was 32 µM (24 h, 37 °C, Mueller-Hinton broth, NaCl 150 mM).
With `O=C(O)CN(CC(=O)O)CP(=O)(O)O` the MIC was 0.125 µg/mL (NDM-1 producer; 32 µg/mL, MIC of meropenem, together with: meropenem).
`C#CCNC(=O)C(C)(C)O/N=C(\C(=O)N[C@@H]1C(=O)N(S(=O)(=O)O)[C@H]1C)c1csc(N)n1` has an MIC of 128 µg/mL (agar dilution; 08-85 mcr-1).
With `COc1c(NC(=O)c2ccc(NC(=O)c3ccc(NC(=O)[C@H](CC(N)=O)NC(=O)c4ccc(NC(=O)[C@@H](N)Cc5ccccc5)cc4)cc3)c(OC)c2O)ccc(C(=O)O)c1O` the MIC was 4 µg/mL (empty cosmid vector; 16 h, 37 °C).
`CC[C@H](C)[C@H](NC(=O)[C@@H](CCCNC(=N)N)NC(=O)[C@H](CCCNC(=N)N)NC(=O)[C@@H]1CCCN1C(=O)[C@@H]1CCCN1C(=O)[C@H](CCCNC(=N)N)NC(=O)[C@@H]1CCCN1C(=O)[C@H](CCCNC(=N)N)NC(=O)[C@@H]1CCCN1C(=O)[C@H](CC(C)C)NC(=O)[C@H](Cc1ccc(O)cc1)NC(=O)[C@H](Cc1ccccc1)NC(=O)[C@@H]1CCCN1C(=O)[C@H](CCCCN)NC(=O)[C@H](CC(=O)O)NC(=O)[C@@H](N)C(C)C)C(=O)N[C@@H](Cc1ccc(O)cc1)C(=O)N[C@@H](CC(N)=O)C(=O)N[C@H](CCCNC(=N)N)C(N)=O` has an MIC of 16 µg/mL (broth microdilution; MC4100; 18 h, 37 °C, 25% MHB2).
`CCCCCCCCCC(=O)N[C@@H](Cc1c[nH]c2ccccc12)C(=O)N[C@H](CC(N)=O)C(=O)N[C@@H](CC(=O)O)C(=O)N[C@@H]1C(=O)NCC(=O)N[C@@H](CCCNC(=O)CNC(=O)[C@H](CC(N)=O)NC(=O)[C@H](C)NC(=O)[C@H](CC(N)=O)NC(=O)CNC(=O)[C@@H](NC(=O)[C@H](CCCNC(=N)N)NC(=O)[C@H](CCSC)NC=O)[C@@H](C)O)C(=O)N[C@@H](CC(=O)O)C(=O)N[C@H](C)C(=O)N[C@@H](CC(=O)O)C(=O)NCC(=O)N[C@H](CO)C(=O)N[C@@H]([C@H](C)CC(=O)O)C(=O)N[C@@H](CC(=O)c2ccccc2N)C(=O)O[C@@H]1C` gave an MIC of 140 µM (broth dilution; K12 MG1655 efflux knock-out).
`CCCCCCCC(=O)N[C@@H](CCN)C(=O)N[C@H](C(=O)N[C@@H](CCN)C(=O)N[C@H]1CCNC(=O)[C@H]([C@@H](C)O)NC(=O)[C@H](CCN)NC(=O)[C@H](CCN)NC(=O)[C@H](CC(C)C)NC(=O)[C@@H](Cc2cc(F)c(F)c(F)c2)NC(=O)[C@H](CCN)NC1=O)[C@@H](C)O` gave an MIC of 1 to 2 µg/mL (broth microdilution; mcr-1, colistin-resistant).
For `CC[C@H](C)[C@H](NC(=O)[C@H](CCCCN)NC(=O)[C@@H](NC(=O)[C@@H](NC(=O)[C@H](CC(C)C)NC(=O)[C@H](CCCNC(=N)N)NC(=O)[C@@H](NC(=O)[C@H](CC(C)C)NC(=O)[C@H](CCCNC(=N)N)NC(=O)CNC(=O)[C@H](Cc1ccccc1)NC(=O)[C@@H](N)CCCNC(=N)N)[C@@H](C)CC)[C@@H](C)CC)C(C)C)C(=O)N[C@@H](C)C(=O)N[C@@H](CCCNC(=N)N)C(=O)N[C@@H](CCCNC(=N)N)C(=O)N[C@@H](C)C(=O)N[C@@H](Cc1c[nH]cn1)C(=O)N[C@@H](CCCNC(=N)N)C(=O)N[C@@H](C)C(=O)N[C@@H](CCCNC(=N)N)C(=O)N[C@@H](CO)C(=O)N[C@@H](C)C(=O)N[C@H](C(=O)N[C@@H](CCCCN)C(=O)N[C@@H](C)C(=O)N[C@@H](C)C(=O)N[C@@H](CO)C(=O)N[C@@H](CC(N)=O)C(=O)N[C@H](C(=O)N[C@@H](C)C(=O)N[C@@H](C)C(=O)N[C@@H](CC(C)C)C(=O)N[C@@H](C)C(=O)N[C@@H](Cc1c[nH]cn1)C(=O)NCC(=O)N[C@@H](C)C(=O)O)C(C)C)C(C)C`, the MIC was at most 0.064 µM (bacterial growth, broth microdilution; cation-adjusted Mueller Hinton broth; 18 h, 37 °C).
For `COc1ccc(CC2[NH2+]CCc3cc(OC)c(OC)cc32)cc1OC.[Cl][Fe-]([Cl])([Cl])[Cl]` (stereo not drawn), the MIC was over 1600 µM (24 h, 37 °C).
`CC1(C)[C@H](NC(=O)/C(=N\OCCN)c2nsc(N)n2)C(=O)N1OS(=O)(=O)O` gave an MIC of 64 µg/mL (agar dilution; CDC 1001728, NDM-1).
The MIC of `CC[C@H](C)[C@H](NC(=O)CNC(=O)[C@H](CC(=O)O)NC(=O)[C@H](CCCNC(=N)N)NC(=O)[C@@H](NC(=O)[C@H](CC(N)=O)NC(=O)[C@H](CCCNC(=N)N)NC(=O)CNC(=O)[C@@H](NC(=O)[C@H](CCCCN)NC(=O)[C@H](CCC(=O)O)NC(=O)[C@H](CC(C)C)NC(=O)[C@H](CCCCN)NC(=O)[C@H](CCCCN)NC(=O)[C@H](Cc1c[nH]c2ccccc12)NC(=O)[C@H](CO)NC(=O)[C@@H]1CCCN1)C(C)C)[C@@H](C)CC)C(=O)N[C@H](C(=O)N[C@@H](CCCCN)C(=O)N[C@@H](C)C(=O)NCC(=O)N1CCC[C@H]1C(=O)N[C@H](C(=O)N[C@H](C(=O)N[C@@H](CCC(=O)O)C(=O)N[C@H](C(=O)N[C@@H](CC(C)C)C(=O)NCC(=O)O)C(C)C)C(C)C)C(C)C)[C@@H](C)CC` is reported as 35.2 µg/mL (broth microdilution; K88, Mueller-Hinton broth; 37 °C).
For `CC[C@H](C)[C@H](NC(=O)[C@@H](CCCNC(=N)N)NC(=O)[C@H](CCCNC(=N)N)NC(=O)[C@H](CC(=O)O)NC(=O)[C@H](Cc1c[nH]c2ccccc12)NC(=O)[C@H](CCCNC(=N)N)NC(=O)[C@@H]1CCCN1C(=O)[C@H](CCCNC(=N)N)NC(=O)[C@@H]1CCCN1C(=O)[C@H](CC(C)C)NC(=O)[C@H](Cc1ccc(O)cc1)NC(=O)[C@@H]1CCCN1C(=O)[C@@H]1CCCN1C(=O)[C@H](CCCCN)NC(=O)[C@H](CC(=O)O)NC(=O)[C@@H](N)C(C)C)C(=O)N[C@@H](Cc1ccc(O)cc1)C(=O)N[C@@H](CC(N)=O)C(=O)N[C@H](CCCNC(=N)N)C(N)=O`, the MIC was 32 µg/mL (broth microdilution; ATCC 25922; 18 h, 37 °C, 25% MHB2).
The MIC of `CC1(C)S[C@@H]2[C@H](NC(=O)[C@H](NC(=O)C3=C(O)C(c4ccccc4F)NC3=O)c3ccccc3)C(=O)N2[C@H]1C(=O)O` (stereo partly drawn) is reported as over 200 µg/mL (broth microdilution; isolate IU 356 A, KPC-3, VIM-1, TEM; no clavulanic acid).
With `CC[C@H](C)[C@H](NC(=O)[C@@H](CCCNC(=N)N)NC(=O)[C@H](CCCNC(=N)N)NC(=O)[C@@H]1CCCN1C(=O)[C@@H]1CCCN1C(=O)[C@H](CCCNC(=N)N)NC(=O)[C@@H]1CCCN1C(=O)[C@H](CCCNC(=N)N)NC(=O)[C@@H]1CCCN1C(=O)[C@H](CC(C)C)NC(=O)[C@H](Cc1ccc(O)cc1)NC(=O)[C@@H]1CCCN1C(=O)[C@H](Cc1ccccc1)NC(=O)[C@H](CCCCN)NC(=O)[C@H](CC(=O)O)NC(=O)[C@@H](N)C(C)C)C(=O)N[C@@H](Cc1ccc(O)cc1)C(=O)N[C@@H](CC(N)=O)C(=O)N[C@H](CCCNC(=N)N)C(N)=O` the MIC was 16 µg/mL (broth microdilution; MC4100; 18 h, 37 °C, 25% MHB2).
The MIC of `CC(=O)N[C@@H](CC(C)C)C(=O)N[C@H]1CSSC[C@@H](C(=O)N2CCC[C@H]2C(N)=O)NC(=O)[C@H]([C@@H](C)O)NC(=O)[C@H](C(C)C)NC(=O)[C@H]([C@@H](C)O)NC(=O)CNC(=O)[C@H](CC(C)C)NC(=O)[C@H](Cc2ccccc2)NC(=O)[C@H](Cc2ccc(O)cc2)NC(=O)[C@H](CC(C)C)NC(=O)[C@H](CCCCN)NC(=O)[C@H](Cc2ccccc2)NC(=O)[C@H](CCCNC(=N)N)NC(=O)[C@H](CCC(N)=O)NC(=O)[C@H](CC(C)C)NC(=O)[C@H](CCCCN)NC(=O)[C@@H]2CCCN2C(=O)[C@H](CCCCN)NC(=O)[C@H](C(C)C)NC(=O)[C@H](CC(N)=O)NC(=O)[C@H](Cc2ccc(O)cc2)NC(=O)[C@H]([C@@H](C)O)NC1=O` is reported as 1.25 to 2.5 µM (broth dilution; laboratory strain; 24 h).

For quick reference, copied from above:
`CC[C@H](C)[C@H](NC(=O)[C@@H](CCCNC(=N)N)NC(=O)[C@H](CCCNC(=N)N)NC(=O)[C@@H]1CCCN1C(=O)[C@@H]1CCCN1C(=O)[C@H](CCCNC(=N)N)NC(=O)[C@@H]1CCCN1C(=O)[C@H](CCCNC(=N)N)NC(=O)[C@@H]1CCCN1C(=O)[C@H](CC(C)C)NC(=O)[C@H](Cc1ccc(O)cc1)NC(=O)[C@H](Cc1ccccc1)NC(=O)[C@@H]1CCCN1C(=O)[C@H](CCCCN)NC(=O)[C@H](CC(=O)O)NC(=O)[C@@H](N)C(C)C)C(=O)N[C@@H](Cc1ccc(O)cc1)C(=O)N[C@@H](CC(N)=O)C(=O)N[C@H](CCCNC(=N)N)C(N)=O` has an MIC of 16 µg/mL (broth microdilution; MC4100; 18 h, 37 °C, 25% MHB2).
`CCCCCCCCCC(=O)N[C@@H](Cc1c[nH]c2ccccc12)C(=O)N[C@H](CC(N)=O)C(=O)N[C@@H](CC(=O)O)C(=O)N[C@@H]1C(=O)NCC(=O)N[C@@H](CCCNC(=O)CNC(=O)[C@H](CC(N)=O)NC(=O)[C@H](C)NC(=O)[C@H](CC(N)=O)NC(=O)CNC(=O)[C@@H](NC(=O)[C@H](CCCNC(=N)N)NC(=O)[C@H](CCSC)NC=O)[C@@H](C)O)C(=O)N[C@@H](CC(=O)O)C(=O)N[C@H](C)C(=O)N[C@@H](CC(=O)O)C(=O)NCC(=O)N[C@H](CO)C(=O)N[C@@H]([C@H](C)CC(=O)O)C(=O)N[C@@H](CC(=O)c2ccccc2N)C(=O)O[C@@H]1C` gave an MIC of 140 µM (broth dilution; K12 MG1655 efflux knock-out).
